Results pooled from the literature.
Numbered parts are unrelated; each lists some results of a single study. Several values in a cell are separate wells, animals, samples, runs or records.

Sample 1
Cell line: HEK-293T
Observed: pseudovirus infection
Method: FDA-approved drug library counter-screen
Organism: VSV pseudotyped with VSV-G
Tested at: 10 µM
Time: 16 h
Relative to: vehicle-treated
Measurement: GFP-positive cells
CCCSc1nc(N[C@@H]2C[C@H]2c2ccc(F)c(F)c2)c2nnn([C@@H]3C[C@H](OCCO)[C@@H](O)[C@H]3O)c2n1: 92.8%
NCCCCCC(=O)O: 88.7%
CCOc1ccccc1OCCN[C@H](C)Cc1ccc(OC)c(S(N)(=O)=O)c1: 94.8%
CC(C)CC(N(C)C)C1(c2ccc(Cl)cc2)CCC1 (centres unmarked): 125%
C=C1CC[C@@]2(O)[C@H]3Cc4ccc(O)c5c4[C@@]2(CCN3CC2CC2)[C@H]1O5: 94.8%
CC(=O)N(CC(O)CO)c1c(I)c(C(=O)NCC(O)CO)c(I)c(C(=O)NCC(O)CO)c1I (centres unmarked): 81.2%
COc1cccc2c1C(=O)c1c(O)c3c(c(O)c1C2=O)C[C@@](O)(C(=O)CO)C[C@@H]3O[C@H]1C[C@H](N)[C@@H](O)[C@H](C)O1: 130%
[H]/N=C(/N)N[C@H]1[C@H](O)[C@@H](O)[C@H](O[C@@H]2O[C@@H](C)[C@](O)(C=O)[C@H]2O[C@@H]2O[C@@H](CO)[C@H](O)[C@@H](O)[C@@H]2NC)[C@@H](N/C(N)=N\[H])[C@@H]1O: 130%
CN(C)CCC(c1ccc(Cl)cc1)c1ccccn1 (centres unmarked): 99.7%
CC(=O)OCC(=O)[C@@]12OC3(CCCC3)O[C@@H]1C[C@H]1[C@@H]3CCC4=CC(=O)C=C[C@]4(C)[C@@]3(F)[C@@H](O)C[C@@]12C: 101%
C[C@@H](O)[C@H]1C(=O)N2C(C(=O)O)=C(SCCN=CN)C[C@H]12: 104%
N#Cc1ccccc1-c1cc(-c2ccccn2)cn(-c2ccccc2)c1=O: 102%
COC(=O)C1=C(C)NC(C)=C(C(=O)OC(C)C)C1c1cccc2nonc12 (centres unmarked): 99.5%
CN(N=O)C(=O)N[C@@H](C=O)[C@@H](O)[C@H](O)[C@H](O)CO: 115%
COc1ccc2[nH]c([S+]([O-])Cc3ncc(C)c(OC)c3C)nc2c1 (centres unmarked): 84.1%
CCOc1nc2cccc(C(=O)O)c2n1Cc1ccc(-c2ccccc2-c2nnn[nH]2)cc1: 99.5%
NC(=O)c1cccnc1: 86.8%
C[C@]12Cc3c[nH]nc3C[C@@H]1CC[C@@H]1[C@@H]2CC[C@@]2(C)[C@H]1CC[C@]2(C)O: 96.3%
Nc1ccn([C@@H]2O[C@H](CO)[C@@H](O)C2(F)F)c(=O)n1: 98.2%
CCC(C)(C)C(=O)O[C@H]1C[C@@H](C)C=C2C=C[C@H](C)[C@H](CC[C@@H]3C[C@@H](O)CC(=O)O3)[C@H]21: 132%
O=c1ccc2ccc(OCCCCN3CCN(c4cccc5sccc45)CC3)cc2[nH]1: 103%
NS(=O)(=O)c1cc2c(cc1Cl)N=CNS2(=O)=O: 102%
c1ccc2[nH]c(-c3cscn3)nc2c1: 76.6%
CO/N=C(\C(=O)N[C@@H]1C(=O)N2C(C(=O)O)=C(C[N+]3(C)CCCC3)CS[C@H]12)c1csc(N)n1: 84.1%
CCC(=O)NCC[C@@H]1CCc2ccc3c(c21)CCO3: 92.2%

Sample 2
Cell line: mouse MPNST tumor cells
Method: high-content immunofluorescence imaging
Item: nuclear SOX9
Tested at: 10 µM
Time: 12 h
Setting: mean of 2 replicates
Relative to: DMSO control
Reading: higher = more nuclear SOX9
Measurement: nuclear SOX9 intensity
Cc1sc2c(c1C)C(c1ccc(Cl)cc1)=NC(CC(N)=O)c1nnc(C)n1-2 (centres unmarked): 125 % of DMSO
COc1ccc2[nH]c(-c3ccccc3)c(CCN(C)C)c2c1: 128 % of DMSO
CC(C)(C)NCC(O)c1ccccc1Cl (centres unmarked): 95 % of DMSO
CN(C)CCN(C)CCc1ccc(Cl)c(Cl)c1: 131 % of DMSO

Sample 3
Organism: Sarcocystis neurona
Observed: parasite growth
Tested at: 10 µM
Time: 96 h
Relative to: untreated
Measurement: log2 fold change
CCc1nc(N)nc(N)c1-c1ccc(Cl)cc1: -2.68
COc1cc2c(cc1OC)[C@@]13CCN4CC5=CCO[C@H]6CC(=O)N2[C@H]1[C@H]6[C@H]5C[C@H]43: -0.18
C[C@]12CCC(=O)C[C@@H]1CC[C@@H]1[C@@H]2CC[C@@]2(C)[C@H]1CC[C@]2(C)O: -0.12
Cc1ccc(-c2nc3ccc(C)cn3c2CC(=O)N(C)C)cc1: 1.49
C[C@]12Cc3c[nH]nc3C[C@@H]1CC[C@@H]1[C@@H]2CC[C@@]2(C)[C@H]1CC[C@]2(C)O: -0.16
CC(C)/N=c1\cc2n(-c3ccc(Cl)cc3)c3ccccc3nc-2cc1Nc1ccc(Cl)cc1: -5.86
CNC1=Nc2ccc(Cl)cc2C(c2ccccc2)=[N+]([O-])C1: 0.26
Oc1ccc2c3c1O[C@H]1[C@@H](O)CC[C@@]4(O)[C@@H](C2)N(CC2CCC2)CC[C@]314: 0.23
CCOC(=O)C1(c2ccccc2)CCN(CCC(C#N)(c2ccccc2)c2ccccc2)CC1: -0.15
NCCc1ccccn1: -0.18

Sample 4
Cell line: A-375
Tested at: 100 µM
Time: 36 h
Measurement: viability
C[C@]12C=CC(=O)C=C1CC[C@@H]1[C@@H]2CC[C@@]2(C)[C@H]1CC[C@]2(C)O: 48.4%
C[C@]12CC[C@H]3[C@@H](CCC4=CC(=O)CC[C@@]43C)[C@@H]1CC[C@@H]2O: 73.8%
CNCC(O)c1ccc(O)cc1 (centres unmarked): 113%
O=C(O)[C@@H]1[C@H](C(=O)O)[C@H]2CC[C@@H]1O2: 54.8%
O=C(CCCN1CCC2(CC1)C(=O)NCN2c1ccccc1)c1ccc(F)cc1: 7.43%
C[C@@H]1CC[C@@]2(OC1)O[C@H]1[C@@H](O)[C@H]3[C@@H]4CC[C@H]5C[C@@H](O[C@@H]6O[C@H](CO)[C@H](O[C@@H]7O[C@H](CO)[C@@H](O)[C@H](O[C@@H]8OC[C@@H](O)[C@H](O)[C@H]8O)[C@H]7O[C@@H]7O[C@H](CO)[C@H](O)[C@H](O[C@@H]8O[C@H](CO)[C@@H](O)[C@H](O)[C@H]8O)[C@H]7O)[C@H](O)[C@H]6O)[C@H](O)C[C@]5(C)[C@H]4CC[C@]3(C)[C@H]1[C@@H]2C: -1.53%
Cc1cccc([C@H](C)c2cnc[nH]2)c1C: 106%
O=P1(N(CCCl)CCCl)NCCCO1 (centres unmarked): 95.8%
CC[C@@]1(O)C(=O)OCc2c1cc1n(c2=O)Cc2cc3cc(O)ccc3nc2-1: 26%
CCC[C@H](NC(=O)[C@@H]1[C@H]2CCC[C@H]2CN1C(=O)[C@@H](NC(=O)[C@@H](NC(=O)c1cnccn1)C1CCCCC1)C(C)(C)C)C(=O)C(=O)NC1CC1: 22.3%

Single results of other studies
CNC(=O)c1ccc(-c2cnn3ccc(C(=O)N(C)c4ccc(Cl)c(C(=O)OC)c4)cc23)cc1
frequency of moderate-to-severe diarrhoea (Cryptosporidium parvum; neonatal calves, experimentally infected; concentration not given, after treatment, calf age 1-7 days): 46.7% and 60% and 66.7% and 20% and 21.4% and 53.3%
